Assay results from different studies.
Lines come from different studies, so protocols differ. Several values in a cell are separate wells, animals, samples, runs or records. ± gives the spread as reported.

Compound	target or system	test	test system	conditions	scale	endpoint	result
Cc1cc(=O)c(-c2ccc(Oc3cccc(C(F)(F)F)c3)cc2)c(C)[nH]1	Plasmodium yoelii		17XL	384-well		IC50	1.01 ± 0.063 µM
C[C@H]1O[C@@H](O[C@H]2[C@@H](O)C[C@H](O[C@H]3[C@@H](O)C[C@H](O[C@H]4CC[C@@]5(C)[C@H](CC[C@@H]6[C@@H]5C[C@@H](O)[C@]5(C)[C@@H](C7=CC(=O)OC7)CC[C@]65O)C4)O[C@@H]3C)O[C@@H]2C)C[C@H](O)[C@@H]1O	BT-12	cell viability, MTT		10 µM, 72 h		inhibition	93.9%
NC(=O)NOCCCCCCCCCCCCCCCCCCCC[P+](c1ccccc1)(c1ccccc1)c1ccccc1.O=C([O-])C(F)(F)F	mouse CD4 T cells, reporter	IFNγ-YFP expression, flow cytometry		144 h		concentration at maximal effect	0.3 µM
O=C(/C=C/C=C/C=C/C1CCCCC1)NC1=C[C@@](O)(/C=C/C=C/C=C/C(=O)NC2=C(O)CCC2=O)[C@@H]2O[C@@H]2C1=O	hcc1359	cell growth, inhibitor, CellTiter-Glo luminescence		78 h	baseline: day 0 cell count	GI50	7.94 µM
Cc1cc(Nc2ncc(Cl)c(Nc3ccccc3S(=O)(=O)C(C)C)n2)c(OC(C)C)cc1C1CCNCC1	CLB-GE	phosphoproteomics LC-MS/MS, refers to: PDZD11 phosphorylation		200 nM, 60 min	baseline: untreated	log2 fold change	-3.36
c1ccc(CNc2nc(NCc3ccccc3)c3ccccc3n2)cc1	BT-12	cell viability, MTT		10 µM, 72 h		inhibition	95.3%
CC/C(=N\NC(=O)NCc1cccc(O)c1)c1ccc(O)c(C)c1O	SK-OV-3	Western blot, refers to: TAZ		10 µM, 3 h, 3D gellan gum culture, unit not given	baseline: β-actin	protein level	1.57 ± 0.62
Cn1cc(Nc2nccc(-c3ccc4c(c3)CN(C3COC3)CC[C@H]4NC(=O)c3cn(C(C)(C)C)nn3)n2)cn1	human B cells			100 nM, 64 h, stimulation-upregulated genes, added: CD40L, anti-IgM, IL-21		number of downregulated genes	475
CCOC(=O)CCNc1cc(N2CCc3ccccc3CC2)nc(-c2ccccn2)n1	HBL-1			0.1 µM, 120 h		viability	120%
COc1cc(/C=C/C(=O)N2CCC=CC2=O)cc(OC)c1OC	MDA-MB-468	quantitative RT-PCR, refers to: MT2A		30 µM, 8 h	baseline: untreated cells	mRNA level	67 ± 1.2%
CCn1cc(-c2cc(Cn3ccoc3=N)cc3c2CCN([C@@H](C)c2cc(OC)ccn2)C3=O)c(C(F)(F)F)n1	LK-2	cell growth, inhibitor		120 h		EC50	0.0164 µM
O=C1NC(=O)C(c2ccccc2)(c2ccccc2)N1	hiPSC glutamatergic neurons	burst frequency, multi-electrode array		1 h		lowest effective concentration	1 µM
Nc1ccc2ncnc(NCCc3ccc(Oc4ccccc4)cc3)c2c1	HeLa expressing Ub(G76V)-GFP	Ub(G76V)-GFP degradation, cycloheximide chase		12 µM		inhibition	20%
CC(C)C[C@H](NC(=O)[C@H](Cc1ccccc1)C[C@@H](O)[C@H](Cc1ccccc1)NC(=O)OC(C)(C)C)C(=O)N[C@@H](Cc1ccccc1)C(N)=O	N2a expressing NotchΔE-myc	gamma-secretase Notch cleavage, Western blot		concentration not given, 24 h		NICD production	inhibited
CCCC(=O)O	HBL-1			0.5 µM, 120 h		viability	111%
CC[S+]([O-])c1nc(-c2ccccc2)cc(C(F)(F)F)n1 (stereo not shown)	HeLa Kyoto	RelA nuclear import, high content imaging		0.05 µM, 3 h, added: 1 µM PMA, 60 min		cells with nuclear RelA	78.1% and 65.1%
Oc1ccc(/C=C/c2cc(O)cc(O)c2)cc1	HBL-1			0.1 µM, 120 h		viability	114%
COc1cnc2cccc(N3CCc4c(cc(Cn5ccnc5C)cc4-c4cn(C)nc4C(F)(F)F)C3=O)c2c1	HSC-3	cell growth, inhibitor		120 h		EC50	> 30 µM
O=C(NC(=O)c1ccccc1O)c1ccccc1O	Plasmodium yoelii		17XL	384-well		IC50	0.141 ± 0.007 µM
Nc1ncnc2c1ncn2[C@@H]1O[C@H](CSCC[C@H](N)C(=O)O)[C@@H](O)[C@H]1O	HBL-1			1 µM, 120 h		viability	94.9%
CN([C@@H](Cc1ccc(OS(=O)(=O)c2cccc3cnccc23)cc1)C(=O)N1CCN(c2ccccc2)CC1)S(=O)(=O)c1cccc2cnccc12	HeLa expressing Ub(G76V)-GFP	Ub(G76V)-GFP degradation, cycloheximide chase		12 µM		inhibition	9%
CCCc1cc(C)[nH]c(=O)c1CNC(=O)c1cc(-c2ccc(N3CCN(C(C)C)CC3)nc2)cc2c1cnn2C(C)C	HBL-1			1 µM, 120 h		viability	113%
O=C(C[C@@H](C(F)F)n1ccc(F)n1)N1CCC(O)(Cn2cnc3c(cnn3-c3ccc(F)cc3)c2=O)CC1	CHP-212 resistant cells (pooled)	annexin V-PI flow cytometry		0.3 µM, 48 h		apoptotic cells (early plus late)	9.54% and 10.6% and 11.8%
C#Cc1cccc(Nc2ncnc3cc(OC)c(OCCCCCCC(=O)NO)cc23)c1	HBL-1			0.1 µM, 120 h		viability	128%
Cn1cc(-c2ccc(-c3cncc(Cl)c3N3CCC4(CCNC4=O)CC3)cc2)cn1	COLO 205	gene expression, microarray, refers to: TNFRSF10B (DR5) mRNA		concentration not given, 6 h	baseline: untreated cells	log2 fold change	2.98

Some of these lines once more:
Compound	target or system	test	test system	conditions	scale	endpoint	result
C[C@H]1O[C@@H](O[C@H]2[C@@H](O)C[C@H](O[C@H]3[C@@H](O)C[C@H](O[C@H]4CC[C@@]5(C)[C@H](CC[C@@H]6[C@@H]5C[C@@H](O)[C@]5(C)[C@@H](C7=CC(=O)OC7)CC[C@]65O)C4)O[C@@H]3C)O[C@@H]2C)C[C@H](O)[C@@H]1O	BT-12	cell viability, MTT		10 µM, 72 h		inhibition	93.9%
NC(=O)NOCCCCCCCCCCCCCCCCCCCC[P+](c1ccccc1)(c1ccccc1)c1ccccc1.O=C([O-])C(F)(F)F	mouse CD4 T cells, reporter	IFNγ-YFP expression, flow cytometry		144 h		concentration at maximal effect	0.3 µM
